# Experimental data from different studies.
# Each line is one published result; not all experiments were run side by side. Numbers after ± are the reported error.
Compound,tested on,test,test system,conditions,scale,endpoint,result
O=C(NCc1ccc(F)cc1F)c1cn2c(c(O)c1=O)C(=O)N(CCCCCO)CC2,human immunodeficiency virus 1,single-round vector infection,integrase R263K,,,EC50,95.7 ± 12.7 nM
O=C(NC1CCN(c2ncnc3[nH]cnc23)CC1)c1cccc(NS(=O)(=O)c2ccc(C(F)(F)F)cc2)c1,monkeypox virus E1/E12,,,50 µM,,inhibition,8.26%
Nc1ncnc2c1ncn2C1CCC(OC(C(=O)O)P(=O)(O)O)C1 (racemic),HIV-1 reverse transcriptase K65R,"enzyme activity, inhibitor",,"added: poly(rU)·oligo(dA), [3H]dATP",relative to: mutant over wild type,fold resistance,0.8 fold
CSCC[C@@H]1NC(=O)CNC(=O)[C@H](CCC(=O)O)NC(=O)[C@@H]2CSSC[C@H](NC(=O)[C@@H](N)Cc3ccc(O)cc3)C(=O)N[C@@H](CCC(N)=O)C(=O)N[C@@H](CCCCN)C(=O)N[C@@H](Cc3c[nH]c4ccccc34)C(=O)N[C@@H](CCSC)C(=O)N[C@@H](Cc3c[nH]c4ccccc34)C(=O)N[C@@H]([C@@H](C)O)C(=O)N[C@H]3CSSC[C@H](NC(=O)[C@H](C(C)C)NC1=O)C(=O)N[C@@H](CCCNC(=N)N)C(=O)N[C@@H](CC(C)C)C(=O)N[C@@H](Cc1c[nH]c4ccccc14)C(=O)N[C@H](C(=O)N[C@@H](CCCCN)C(=O)N[C@@H](CCCCN)C(=O)N[C@@H](CCCCN)C(=O)N[C@@H](CC(C)C)C(=O)N[C@@H](Cc1c[nH]c4ccccc14)C(=O)O)CSSC[C@H](NC(=O)[C@H](CCCCN)NC(=O)[C@H](CCCNC(=N)N)NC(=O)[C@H](CCC(=O)O)NC(=O)[C@H](CO)NC(=O)[C@H](CC(=O)O)NC3=O)C(=O)N2,ND7/23,peak TTX-sensitive sodium current,,"0.003 µM, 1 peak",,inhibition,22.4 ± 10.5%
Cc1cc(/C=C/C#N)cc(C)c1Nc1nc(Nc2ccc(C#N)cc2)ncc1N,HIV-1,"viral replication, single-round infection",RT mutant K101E/M184I,,,EC50,1.3 ± 0.6 nM
COCCn1ccn2cc(C(=O)NCc3ccc(F)cc3F)c(=O)c(O)c2c1=O,human immunodeficiency virus 1,single-round vector infection,integrase S230N,,,EC50,4.5 ± 0.6 nM
CCCCCCCCCCCCCCCC(=O)N[C@@H](CCC(=O)NCCOCCOCCC(=O)NCCOCCOCCC(=O)NCCCC[C@H](NC(=O)[C@H](CC(=O)O)NC(=O)[C@H](CC(C)C)NC(=O)[C@H](Cc1ccc(O)cc1)NC(=O)[C@H](CCCCN)NC(=O)[C@H](CO)NC(=O)[C@H](Cc1ccc(O)cc1)NC(=O)[C@H](CC(=O)O)NC(=O)[C@H](CO)NC(=O)[C@@H](NC(=O)[C@H](Cc1ccccc1)NC(=O)[C@@H](NC(=O)CNC(=O)[C@H](CCC(N)=O)NC(=O)[C@@H](CO)NC(=O)[C@@H](N)Cc1c[nH]cn1)[C@@H](C)O)[C@@H](C)O)C(=O)N[C@@H](CCCNC(=N)N)C(=O)N[C@@H](CCCNC(=N)N)C(=O)N[C@@H](C)C(=O)N[C@@H](CCC(N)=O)C(=O)N[C@@H](CC(=O)O)C(=O)N[C@@H](Cc1ccccc1)C(=O)N[C@H](C(=O)N[C@@H](CCC(N)=O)C(=O)N[C@@H](Cc1c[nH]c2ccccc12)C(=O)N[C@@H](CC(C)C)C(=O)N[C@@H](CC(C)C)C(=O)N[C@@H](CC(N)=O)C(=O)N[C@H](C(=O)NCC(=O)NCC(=O)N1CCC[C@H]1C(=O)N[C@@H](CO)C(=O)N[C@@H](CO)C(=O)NCC(=O)N[C@@H](C)C(=O)N1CCC[C@H]1C(=O)N1CCC[C@H]1C(=O)N1CCC[C@H]1C(=O)N[C@@H](CO)C(N)=O)[C@@H](C)O)C(C)C)C(=O)O,,,"Sprague-Dawley rat ANIT model, liver",dose not given,,α-SMA staining,decreased
Cn1ccn2cc(C(=O)NCc3ccc(F)cc3F)c(=O)c(O)c2c1=O,human immunodeficiency virus 1,single-round vector infection,integrase S230N,,,EC50,7.9 ± 0.9 nM
CC[C@H](C)[C@H](NC(=O)[C@H](Cc1ccccc1)NC(=O)[C@@H](NC(=O)[C@@H](NC(=O)[C@H](CC(C)C)NC(=O)[C@H](CCCCN)NC(=O)[C@@H](N)CCCCN)[C@@H](C)CC)[C@@H](C)O)C(=O)N[C@@H](CC(C)C)C(=O)N[C@@H](CCCNC(=N)N)C(=O)N[C@@H](CCCNC(=N)N)C(=O)N[C@H](C(=O)N[C@@H](CCCNC(=N)N)C(=O)N[C@@H](CCC(=O)O)C(=O)N[C@@H](CCCCN)C(=O)N[C@@H](CCCCN)C(=O)N[C@@H](CCCCN)C(=O)N[C@@H](CCC(=O)O)C(=O)N[C@@H](CS)C(=O)N[C@@H](CC(C)C)C(=O)N[C@H](C(=O)O)C(C)C)[C@@H](C)O,TTX-sensitive sodium channel,"resurgent sodium current, open-channel blocker, whole-cell patch clamp",mouse hippocampal CA3 neurons,"200 µM intracellular, 22 °C",,time to peak,6.1 ± 0.5 ms
CC(C)CC(C)N1CCn2cc(C(=O)NCc3ccc(F)cc3F)c(=O)c(O)c2C1=O (stereo not drawn),human immunodeficiency virus 1,single-round vector infection,integrase R263K,,,EC50,6.5 ± 1.2 nM
Cc1cc(/C=C/C#N)cc(C)c1-n1cnc2cnc(Nc3ccc(C#N)cc3)nc21,HIV-1,"viral replication, single-round infection",RT mutant G190S,,,EC50,0.1 ± 0.01 nM
Cc1cn(C2CCC(OC(C(=O)O)P(=O)(O)O)C2)c(=O)[nH]c1=O (racemic),HIV-1 reverse transcriptase E138K,"enzyme activity, inhibitor",,"added: poly(rA)·oligo(dT), [3H]dTTP",relative to: mutant over wild type,fold resistance,1 fold
COCCCn1ccn2cc(C(=O)NCc3ccc(F)cc3F)c(=O)c(O)c2c1=O,human immunodeficiency virus 1,single-round vector infection,integrase G140S/Q148H,,,EC50,129 ± 19.5 nM
CC[C@H](C)[C@H](NC(=O)[C@H](CCCCN)NC(=O)[C@H](CCCCN)NC(=O)[C@H](CC(C)C)NC(=O)[C@H](Cc1c[nH]c2ccccc12)NC(=O)CN)C(=O)NCC(=O)N[C@@H](CCCCN)C(=O)N[C@@H](CCCCN)C(=O)N[C@H](C(=O)N[C@@H](CCC(=O)O)C(=O)N[C@@H](CCCNC(=N)N)C(=O)N[C@H](C(=O)NCC(=O)N[C@@H](CCC(N)=O)C(=O)N[C@@H](Cc1c[nH]cn1)C(=O)N[C@H](C(=O)N[C@@H](CCCNC(=N)N)C(=O)N[C@@H](CC(=O)O)C(=O)N[C@@H](C)C(=O)N[C@H](C(=O)N[C@H](C(=O)N[C@@H](CCC(N)=O)C(=O)N[C@H](C(=O)N[C@H](C(=O)NCC(=O)N[C@H](C(=O)N[C@@H](C)C(=O)N[C@@H](CCC(N)=O)C(=O)N[C@@H](CCC(N)=O)C(=O)N[C@@H](C)C(=O)N[C@@H](C)C(=O)N[C@@H](CC(N)=O)C(=O)N[C@H](C(=O)N[C@@H](C)C(=O)N[C@@H](C)C(=O)N[C@H](C(=O)N[C@@H](CC(C)C)C(=O)N[C@@H](CCCCN)C(N)=O)[C@@H](C)O)C(C)C)C(C)C)[C@@H](C)CC)[C@@H](C)O)[C@@H](C)CC)[C@@H](C)O)[C@@H](C)O)C(C)C)[C@@H](C)CC,Escherichia coli,,"ATCC 25922, CAMHB with 10% mouse serum",,,MIC,0.25 µg/mL
CN1CCN(C(=O)N[C@@H](Cc2ccccc2)C(=O)N[C@H](/C=C/S(=O)(=O)c2ccccc2)CCc2ccccc2)CC1,cathepsin L human,"SARS-CoV-2 spike cleavage at S1' site, inhibitor, SDS-PAGE",,"2.5 to 5 µM, 1 h, pH 5.5",,inhibition,inhibited

# Excerpt of the above:
Compound,tested on,test,test system,conditions,scale,endpoint,result
Cc1cn(C2CCC(OC(C(=O)O)P(=O)(O)O)C2)c(=O)[nH]c1=O (racemic),HIV-1 reverse transcriptase E138K,"enzyme activity, inhibitor",,"added: poly(rA)·oligo(dT), [3H]dTTP",relative to: mutant over wild type,fold resistance,1 fold
COCCCn1ccn2cc(C(=O)NCc3ccc(F)cc3F)c(=O)c(O)c2c1=O,human immunodeficiency virus 1,single-round vector infection,integrase G140S/Q148H,,,EC50,129 ± 19.5 nM
